Measured values collected from several papers.
Protocols differ between the studies behind these lines. ± marks the error that the study gave. ≈ marks a conversion by molar mass, not a printed value.

| SMILES | tested on | assay | system | conditions | how to read | measurement | result |
| --- | --- | --- | --- | --- | --- | --- | --- |
| COc1cc(CCC(C)=O)ccc1O | mouse mAb 1-D6 | antibody binding, indirect competitive ELISA | – | added: coating antigen 4-OVA | – | IC50 | 0.331 µg/mL (≈ 1.71 µM) |
| [64Cu+2].c1ccc(CNCc2ccc(CN3CCCN4CCNCCCN(CC4)CC3)cc2)nc1 | CXCR4 (human) | – | NOD/SCID mice, U87 xenografts, U87 control tumour | 240 min post-injection | – | tissue uptake | 2.72 ± 0.85 %ID/g |
| CC(C)C[C@H](NC(=O)[C@@H](CCCCNC(=O)CCCCCNC(=O)CN1CCN(CC(=O)O)CCN(CC(=O)O)CCN(CC(=O)O)CC1)NC(=O)[C@H](Cc1ccc(O)cc1)NC(=O)[C@H](CO)NC(=O)[C@H](Cc1c[nH]c2ccccc12)NC(=O)[C@H](Cc1cnc[nH]1)NC(=O)[C@@H]1CCC(=O)N1)C(=O)N[C@@H](CCCNC(=N)N)C(=O)N1CCC[C@H]1C(=O)NCC(N)=O [indium-111 labelled] | – | – | female athymic nude mouse, tumor | intravenous, 0.037 MBq, 2 h | – | tissue uptake | 0.29 ± 0.1 %ID/g |
| CCCCC/C=C/C(=O)CCc1ccc(O)c(OC)c1 | mouse mAb 1-D6 | antibody binding, indirect competitive ELISA | – | added: coating antigen 4-OVA | – | IC50 | 0.134 µg/mL (≈ 0.484 µM) |
| C=C1CC[C@H](OCCCNC(=O)CCOCCOCCOCCOCCOCCOCCOCCOCCOCCOCCOCCOCCOCCOCCOCCOCCOCCOCCOCCOCCOCCOCCOCCOCCOCCOCCOCCOCCOCCOCCOCCOCCOCCOCCOCCOCCNC(=O)CCN2C(=O)CC(SC[C@H](NC(=O)[C@H](Cc3ccccc3)NC(=O)[C@H](CC(N)=O)NC(=O)[C@H](Cc3c[nH]cn3)NC(=O)[C@@H](NC(=O)[C@H](CC(=O)O)NC(=O)[C@H](CCC(N)=O)NC(=O)[C@H](CC(C)C)NC(=O)[C@H](CCCCN)NC(=O)[C@H](CCCCN)NC(=O)[C@H](CCCNC(=N)N)NC(=O)[C@H](CC(C)C)NC(=O)[C@H](Cc3c[nH]c4ccccc34)NC(=O)[C@H](CCC(=O)O)NC(=O)[C@@H](NC(=O)[C@H](CCCNC(=N)N)NC(=O)[C@H](CCC(=O)O)NC(=O)[C@H](CCSC)NC(=O)[C@H](CO)NC(=O)[C@H](CC(N)=O)NC(=O)[C@H](CC(C)C)NC(=O)[C@H](Cc3c[nH]cn3)NC(=O)[C@H](CCCCN)NC(=O)CNC(=O)[C@H](CC(C)C)NC(=O)[C@H](CC(N)=O)NC(=O)[C@H](Cc3c[nH]cn3)NC(=O)[C@H](CCSC)NC(=O)[C@H](CC(C)C)NC(=O)[C@H](CCC(N)=O)NC(=O)[C@@H](NC(=O)[C@H](CCC(=O)O)NC(=O)[C@H](CO)NC(=O)[C@@H](NC(=O)[C@@H](N)CO)C(C)C)[C@@H](C)CC)C(C)C)C(C)C)C(N)=O)C2=O)C/C1=C/C=C1\CCC[C@]2(C)[C@@H]([C@H](C)CCCC(C)(C)O)CC[C@@H]12 (stereo partly drawn) | – | – | Sprague Dawley rat | subcutaneous, 3 µg/kg daily, 89 days | baseline: 1 µg/kg dose | dose-normalized Cmax | 0.99 |
| N=C(N)NCCC[C@@H]1NC(=O)[C@H](CCCCNC(=O)CNC(=O)CNC(=O)CNC(=O)CC[C@H](NC(=O)CNC(=O)CNC(=O)CNC(=O)CN2CCN(CC(=O)O)CCN(CC(=O)O)CCN(CC(=O)O)CC2)C(=O)NCC(=O)NCC(=O)NCC(=O)NCCCC[C@@H]2NC(=O)[C@@H](Cc3ccccc3)NC(=O)[C@H](CC(=O)O)NC(=O)CNC(=O)[C@H](CCCNC(=N)N)NC2=O)NC(=O)[C@@H](Cc2ccccc2)NC(=O)[C@H](CC(=O)O)NC(=O)CNC1=O [copper-64 labelled] | – | – | athymic nu/nu mouse, female, liver | intravenous, 1 h | – | tissue uptake | 3.01 ± 0.51 %ID/g |
| N=C(N)NCCC[C@@H]1NC(=O)[C@H](CCCCNC(=O)CNC(=O)CNC(=O)CNC(=O)CC[C@H](NC(=O)CNC(=O)CNC(=O)CNC(=O)CC[C@H](NC(=O)CN2CCN(CC(=O)O)CCN(CC(=O)O)CCN(CC(=O)O)CC2)C(=O)NCC(=O)NCC(=O)NCC(=O)N[C@@H](CCC(=O)NCC(=O)NCC(=O)NCC(=O)NCCCC[C@@H]2NC(=O)[C@@H](Cc3ccccc3)NC(=O)[C@H](CC(=O)O)NC(=O)CNC(=O)[C@H](CCCNC(=N)N)NC2=O)C(=O)NCC(=O)NCC(=O)NCC(=O)NCCCC[C@@H]2NC(=O)[C@@H](Cc3ccccc3)NC(=O)[C@H](CC(=O)O)NC(=O)CNC(=O)[C@H](CCCNC(=N)N)NC2=O)C(=O)NCC(=O)NCC(=O)NCC(=O)NCCCC[C@@H]2NC(=O)[C@@H](Cc3ccccc3)NC(=O)[C@H](CC(=O)O)NC(=O)CNC(=O)[C@H](CCCNC(=N)N)NC2=O)NC(=O)[C@@H](Cc2ccccc2)NC(=O)[C@H](CC(=O)O)NC(=O)CNC1=O [indium-111 labelled] | – | – | female athymic nu/nu mice, intestine | intravenous, 72 h | – | tissue uptake | 8.31 ± 2.14 %ID/g |
| CC(C)C[C@H](NC(=O)[C@H](Cc1ccc(O)cc1)NC(=O)[C@@H](CCCNC(=N)N)NC(=O)[C@@H](CO)NC(=O)[C@H](Cc1ccccc1)NC(=O)[C@H](CC1CCCCC1)NC(=O)[C@H](CC(=O)O)NC(=O)CN1CCCN2CCN(CCCN(CC(=O)O)CC2)CC1)C(=O)N[C@@H](Cc1c[nH]c2ccccc12)C(=O)N[C@@H](CO)C(=O)O [copper-64 labelled] | – | – | female NMRI nude mice, brain | 22 h p.i. | – | tissue uptake | 0.1 ± 0.1 %ID/g |
| CCCC[C@H](NC(=O)CCCCCCCNC(=O)CN1CCN(CC(=O)O)CCN(CC(=O)O)CC1)C(=O)N[C@H]1CC(=O)NCCCC[C@@H](C(N)=O)NC(=O)[C@H](Cc2c[nH]c3ccccc23)NC(=O)[C@H](CCCNC(=N)N)NC(=O)[C@@H](Cc2ccccc2)NC(=O)[C@H](Cc2c[nH]cn2)NC1=O [copper-64 labelled] | – | – | C57 mice, heart | intravenous, 0.37 MBq, 2 h | – | tissue uptake | 0.18 ± 0.05 %ID/g |
| CCCC[C@H](NC(=O)CNC(=O)CNC(=O)CN1CCN(CC(=O)O)CCN(CC(=O)O)CCN(CC(=O)O)CC1)C(=O)N[C@H]1CC(=O)NCCCC[C@@H](C(N)=O)NC(=O)[C@H](Cc2c[nH]c3ccccc23)NC(=O)[C@H](CCCNC(=N)N)NC(=O)[C@@H](Cc2ccccc2)NC(=O)[C@H](Cc2c[nH]cn2)NC1=O [lutetium-177 labelled] | – | – | C57 mouse, female, lung | intravenous, 0.037 MBq, 0.5 h | – | tissue uptake | 3.15 ± 0.57 %ID/g |
| NS(=O)(=O)Nc1ncnc(OCCOc2ncc(Br)cn2)c1-c1ccc(Br)cc1 | – | Michaelis-Menten plot, refers to: compound formation | male Sprague-Dawley rat, liver microsomes | 1500 mg/kg daily, 4 weeks | – | Vmax | 522 ± 29 pmol/min/mg |
| N=C(N)NCCC[C@@H]1NC(=O)[C@H](CCCCNC(=O)CNC(=O)CNC(=O)CNC(=O)CC[C@H](NC(=O)CNC(=O)CNC(=O)CNC(=O)CN2CCN(CC(=O)O)CCN(CC(=O)O)CCN(CC(=O)O)CC2)C(=O)NCC(=O)NCC(=O)NCC(=O)NCCCC[C@@H]2NC(=O)[C@@H](Cc3ccccc3)NC(=O)[C@H](CC(=O)O)NC(=O)CNC(=O)[C@H](CCCNC(=N)N)NC2=O)NC(=O)[C@@H](Cc2ccccc2)NC(=O)[C@H](CC(=O)O)NC(=O)CNC1=O [indium-111 labelled] | – | – | female athymic nu/nu mice, brain | intravenous, 0.5 h | – | tissue uptake | 0.13 ± 0.03 %ID/g |
| CCCC[C@H](NC(=O)CNC(=O)CNC(=O)CN1CCN(CC(=O)O)CCN(CC(=O)O)CC1)C(=O)N[C@H]1CC(=O)NCCCC[C@@H](C(N)=O)NC(=O)[C@H](Cc2c[nH]c3ccccc23)NC(=O)[C@H](CCCNC(=N)N)NC(=O)[C@@H](Cc2ccccc2)NC(=O)[C@H](Cc2c[nH]cn2)NC1=O [technetium-99m labelled] | – | – | C57 mouse, pancreas | iv, 0.037 MBq, 24 h | – | tissue uptake | 0.03 ± 0.05 %ID/g |
| CCCC[C@H](NC(=O)COCCOCCNC(=O)CN1CCN(CC(=O)O)CCN(CC(=O)O)CC1)C(=O)N[C@H]1CC(=O)NCCCC[C@@H](C(N)=O)NC(=O)[C@H](Cc2c[nH]c3ccccc23)NC(=O)[C@H](CCCNC(=N)N)NC(=O)[C@@H](Cc2ccccc2)NC(=O)[C@H](Cc2c[nH]cn2)NC1=O [copper-64 labelled] | – | – | C57 mice, skin | intravenous, 0.37 MBq, 4 h | – | tissue uptake | 0.46 ± 0.22 %ID/g |
| N=C(N)NCCC[C@@H]1NC(=O)[C@H](CCCCNC(=O)CC[C@H](NC(=O)CC[C@H](NC(=O)CN2CCN(CC(=O)O)CCN(CC(=O)O)CCN(CC(=O)O)CC2)C(=O)N[C@@H](CCC(=O)NCCCC[C@@H]2NC(=O)[C@@H](Cc3ccccc3)NC(=O)[C@H](CC(=O)O)NC(=O)CNC(=O)[C@H](CCCNC(=N)N)NC2=O)C(=O)NCCCC[C@@H]2NC(=O)[C@@H](Cc3ccccc3)NC(=O)[C@H](CC(=O)O)NC(=O)CNC(=O)[C@H](CCCNC(=N)N)NC2=O)C(=O)NCCCC[C@@H]2NC(=O)[C@@H](Cc3ccccc3)NC(=O)[C@H](CC(=O)O)NC(=O)CNC(=O)[C@H](CCCNC(=N)N)NC2=O)NC(=O)[C@@H](Cc2ccccc2)NC(=O)[C@H](CC(=O)O)NC(=O)CNC1=O [indium-111 labelled] | – | – | female athymic nu/nu mice, brain | intravenous, 0.5 h | – | tissue uptake | 0.15 ± 0.04 %ID/g |

Some of these lines once more:
| SMILES | tested on | assay | system | conditions | how to read | measurement | result |
| --- | --- | --- | --- | --- | --- | --- | --- |
| N=C(N)NCCC[C@@H]1NC(=O)[C@H](CCCCNC(=O)CNC(=O)CNC(=O)CNC(=O)CC[C@H](NC(=O)CNC(=O)CNC(=O)CNC(=O)CN2CCN(CC(=O)O)CCN(CC(=O)O)CCN(CC(=O)O)CC2)C(=O)NCC(=O)NCC(=O)NCC(=O)NCCCC[C@@H]2NC(=O)[C@@H](Cc3ccccc3)NC(=O)[C@H](CC(=O)O)NC(=O)CNC(=O)[C@H](CCCNC(=N)N)NC2=O)NC(=O)[C@@H](Cc2ccccc2)NC(=O)[C@H](CC(=O)O)NC(=O)CNC1=O [indium-111 labelled] | – | – | female athymic nu/nu mice, brain | intravenous, 0.5 h | – | tissue uptake | 0.13 ± 0.03 %ID/g |
| CCCC[C@H](NC(=O)CNC(=O)CNC(=O)CN1CCN(CC(=O)O)CCN(CC(=O)O)CC1)C(=O)N[C@H]1CC(=O)NCCCC[C@@H](C(N)=O)NC(=O)[C@H](Cc2c[nH]c3ccccc23)NC(=O)[C@H](CCCNC(=N)N)NC(=O)[C@@H](Cc2ccccc2)NC(=O)[C@H](Cc2c[nH]cn2)NC1=O [technetium-99m labelled] | – | – | C57 mouse, pancreas | iv, 0.037 MBq, 24 h | – | tissue uptake | 0.03 ± 0.05 %ID/g |
